Experimental data of several laboratories.
Parts stem from different laboratories: compare values within a part only.
Sequence of UniProt Q9UQM7 (whole entry, looked up): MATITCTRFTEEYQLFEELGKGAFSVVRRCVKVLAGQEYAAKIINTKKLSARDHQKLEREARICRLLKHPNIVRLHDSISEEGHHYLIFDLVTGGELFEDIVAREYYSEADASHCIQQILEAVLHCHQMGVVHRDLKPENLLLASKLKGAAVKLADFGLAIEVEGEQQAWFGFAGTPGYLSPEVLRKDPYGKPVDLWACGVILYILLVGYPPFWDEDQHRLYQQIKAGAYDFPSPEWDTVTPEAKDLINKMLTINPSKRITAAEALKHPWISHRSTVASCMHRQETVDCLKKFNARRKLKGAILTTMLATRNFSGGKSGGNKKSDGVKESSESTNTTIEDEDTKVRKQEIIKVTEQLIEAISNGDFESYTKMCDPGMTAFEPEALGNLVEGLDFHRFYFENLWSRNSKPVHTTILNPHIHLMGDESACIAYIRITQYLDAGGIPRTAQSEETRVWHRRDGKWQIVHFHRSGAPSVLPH

Sample 1
Compound: CC(C)(C)OC(=O)N[C@H]1CCCCC/C=C\[C@@H]2C[C@@]2(C(=O)NS(=O)(=O)C2CC2)NC(=O)[C@@H]2C[C@@H](OC(=O)N3Cc4cccc(F)c4C3)CN2C1=O
target | observed | action | concentration | inhibition [%]
Genome polyprotein, NS3 protease (Hepatitis C virus genotype 1b, UniProt Q9WMX2, R1181K) |  |  | 1 µM | 94
Genome polyprotein, NS3 protease (Hepatitis C virus genotype 1b, UniProt Q9WMX2, R1181Q) |  |  | 0.01 µM | 22
Genome polyprotein (Hepatitis C virus genotype 1b, UniProt Q9WMX2) | protease activity | inhibitor | 0.001 µM | 58

Sample 2 — cell line: A-375; concentration: 100 µM; time: 18 h
Compound | viability [%]
C[C@]12CC[C@H]3[C@@H](CC[C@@]45O[C@@H]4C(O)=C(C#N)C[C@]35C)[C@@H]1CC[C@@H]2O | 68.2
Oc1cccc2cccnc12 | 73.1
COc1ccc(C(CN(C)C)C2(O)CCCCC2)cc1 (stereo not shown) | 84
C[C@]12CCC(=O)C=C1CC[C@@H]1[C@@H]2CC[C@@]2(C)[C@H]1CC[C@]2(C)O | 66.8

Sample 3 — target: vesicular stomatitis virus glycoprotein; observed: viral entry; technique: VSVΔG-G pseudovirus; concentration: 10 µM
Compound | inhibition
Cc1ccc(-c2cc(O)c3c(c2)CN(C(=O)Nc2ccccc2)CCO3)s1 | -35%
CC(=O)NC(c1ccc(C)cc1)c1ccc2cccnc2c1O (stereo not shown) | 26%
Clc1cc2c(c3ncccc13)OCN(C1CCCC1)C2 | 22%
COc1ccc([N+](=O)[O-])c(S(=O)(=O)c2ccc(Cl)cc2)n1 | 20%
Fc1ccccc1CN1CCCC(NCc2cccn2-c2nccs2)C1 (stereo not shown) | -2%
c1cc(OCCn2ccnc2)cc(-c2ccnc3[nH]ccc23)c1 | 8%
CCCCc1ccc(Nc2cc(C)nc(-n3nc(C)cc3C)n2)cc1 | 34%
NC(=S)N/N=C/c1ncc(C(F)(F)F)cc1Cl | 2.4%

Mixed results
Structure (SMILES) | target | observed | action | concentration | quantity | result
CC[C@H]1CN2CC[C@]3(C(=O)Nc4ccccc43)[C@@H]2C[C@@H]1/C(=C\OC)C(=O)OC | Calcium/calmodulin-dependent protein kinase type II subunit alpha (CAMK2A, Homo sapiens, UniProt Q9UQM7) | enzyme activity | inhibitor | 10 µM | inhibition | -31%

For quick reference, copied from above (sample 1):
target | observed | action | concentration | inhibition [%]
Genome polyprotein, NS3 protease (Hepatitis C virus genotype 1b, UniProt Q9WMX2, R1181K) |  |  | 1 µM | 94
Genome polyprotein (Hepatitis C virus genotype 1b, UniProt Q9WMX2) | protease activity | inhibitor | 0.001 µM | 58
Genome polyprotein, NS3 protease (Hepatitis C virus genotype 1b, UniProt Q9WMX2, R1181Q) |  |  | 0.01 µM | 22
